Measured values gathered from unrelated publications.
Numbered parts are unrelated; each lists some results of a single study.

Block 1
Target: Prothrombin, mature alpha-thrombin (F2, Homo sapiens, UniProt P00734)
Method: aptamer microarray, sandwich
Form: DNA with 2'F-ANA
Medium: in vitro
Tested at: 200 nM
Notes: whole 15-mer aptamer, many near background
Together with: Cy3 exosite-II aptamer, 400 nM
Direction: higher = stronger binding
Sequence: GGTTGGTGTGGTTGG
For `2'F-ANA at 5 6 7 8 9 10 11 12 13`, “mean fluorescence intensity” read 51.3 a.u.
`2'F-ANA at 2 5 6 7 8 9 10 11`: “mean fluorescence intensity” 49.1 a.u.
Under “mean fluorescence intensity”, `2'F-ANA at 1 2 3 4 8 10 11 12 14 15` is recorded as 50 a.u.
`2'F-ANA at 1 2 4 7 11 12 13`: “mean fluorescence intensity” 165 a.u.
`2'F-ANA at 1 2 3 4 5 6 7 8 9 11 12 14 15` — result for “mean fluorescence intensity”: 54.2 a.u.
`2'F-ANA at 2 3 5 6 7 8 9 11 12 14` — result for “mean fluorescence intensity”: 74.2 a.u.

Block 2
Target: Ras GTPase-activating protein-binding protein 1, RRM domain (G3BP1, Homo sapiens, UniProt Q13283)
Sequence of UniProt Q13283 (whole entry, looked up): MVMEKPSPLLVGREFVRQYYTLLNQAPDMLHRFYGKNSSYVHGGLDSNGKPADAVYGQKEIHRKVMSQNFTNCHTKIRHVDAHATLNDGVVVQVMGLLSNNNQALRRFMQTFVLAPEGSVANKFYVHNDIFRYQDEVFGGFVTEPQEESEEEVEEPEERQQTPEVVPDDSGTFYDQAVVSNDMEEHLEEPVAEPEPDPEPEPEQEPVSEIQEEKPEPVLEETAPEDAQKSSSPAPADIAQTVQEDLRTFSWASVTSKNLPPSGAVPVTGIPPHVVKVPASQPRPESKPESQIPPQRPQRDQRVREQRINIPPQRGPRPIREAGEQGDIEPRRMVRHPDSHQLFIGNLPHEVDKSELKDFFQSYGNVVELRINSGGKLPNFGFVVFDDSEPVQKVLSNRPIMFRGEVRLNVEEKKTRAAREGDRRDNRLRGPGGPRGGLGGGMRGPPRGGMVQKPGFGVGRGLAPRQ
Method: RNA Bind-n-Seq
Form: RNA
Medium: in vitro
Tested at: 1 µM
Notes: whole 134-nt RNA, ends assumed
Together with: 150 mM KCl
Baseline: input library
Direction: higher = stronger binding
All sequences stand within: GGGAGUUCUACAGUCCGACGAUC … UGGAAUUCUCGGGUGUCAAGG
`UCAAGUCCUGUGCUACACAUCGUAUGUACCGAAUCGGUUUUUGGUUUUUGGAGGAAAGUAUUAUGUUACGCCGUUCGGAUCUGCACUUCC` has a log2 enrichment of -0.127.
`GUCCUGUGCUACACAUCGUAUGUACCGAAUCGGGAAAAAAAGGGAAAAAAAGGGAGGGAAAGUAUUAUGUUACGCCGUUCGGAUCUGCAC` gave a log2 enrichment of 0.581.
`ACCAUGCAGGUGGGCAUCUUUGGGAAGUGGGGCAAGGGGGGGAUAGGGAGGGAAAUAACACUUUGGGAACAGGUGGUCCCAGGUCGUUUC` has a log2 enrichment of -0.356.
`UCCUGUGCUACACAUCGUAUGUACCGAAUCGGGUUUUUUUGGGAAAGGGAAAAAAAGGGAAAGUAUUAUGUUACGCCGUUCGGAUCUGCA` has a log2 enrichment of -0.0449.
`UCAAGUCCUGUGCUACACAUCGUAUGUACCGAAUCGGUUUGGUUUGGAAAAAGGAAAGUAUUAUGUUACGCCGUUCGGAUCUGCACUUCC` gave a log2 enrichment of -0.161.

Block 3
Target: Histone acetyltransferase KAT6A, winged helix 1, GST fusion (KAT6A, Homo sapiens, UniProt Q92794, residues 1-85)
Method: protein binding microarray
Form: double-stranded DNA, one strand shown
Medium: in vitro
Tested at: not given
Notes: 8-mer, flanks averaged, mean of 2 arrays, mostly near background
Baseline: not given
Direction: higher = stronger binding
Target sequence (chain): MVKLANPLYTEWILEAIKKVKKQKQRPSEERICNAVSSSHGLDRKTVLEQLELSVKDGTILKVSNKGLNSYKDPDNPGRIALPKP
`TACGTCTA` gave an E-score of -0.146.
For `CAGTACAC`, the E-score was -0.07.
The E-score of `GGGCCATA` is reported as 0.123.
`AATGCAGT` gave an E-score of -0.0216.
`CAACTCGG` gave an E-score of -0.0629.

Further values, each from its own experiment
The fold induction of `PhoQ, residues 284 288 289 292 302 303 SVTLVV` is reported as 2.98 (PhoP, residues 12 14 15 18 19 LHSVW (Escherichia coli, UniProt P23836); Sort-seq, item: YFP reporter; E. coli; PhoQ-PhoP variant library, together with: 10 µM Mg2+; baseline: high Mg2+ state, higher = stronger signaling).

A few entries again (block 1):
`2'F-ANA at 1 2 4 7 11 12 13`: “mean fluorescence intensity” 165 a.u.
`2'F-ANA at 2 3 5 6 7 8 9 11 12 14` — result for “mean fluorescence intensity”: 74.2 a.u.
